Published values from different studies.
Every numbered part comes from another study and shows a few of its results, in no order. Several values in a cell are separate wells, animals, samples, runs or records.
Chain of UniProt P21860 (whole entry, looked up): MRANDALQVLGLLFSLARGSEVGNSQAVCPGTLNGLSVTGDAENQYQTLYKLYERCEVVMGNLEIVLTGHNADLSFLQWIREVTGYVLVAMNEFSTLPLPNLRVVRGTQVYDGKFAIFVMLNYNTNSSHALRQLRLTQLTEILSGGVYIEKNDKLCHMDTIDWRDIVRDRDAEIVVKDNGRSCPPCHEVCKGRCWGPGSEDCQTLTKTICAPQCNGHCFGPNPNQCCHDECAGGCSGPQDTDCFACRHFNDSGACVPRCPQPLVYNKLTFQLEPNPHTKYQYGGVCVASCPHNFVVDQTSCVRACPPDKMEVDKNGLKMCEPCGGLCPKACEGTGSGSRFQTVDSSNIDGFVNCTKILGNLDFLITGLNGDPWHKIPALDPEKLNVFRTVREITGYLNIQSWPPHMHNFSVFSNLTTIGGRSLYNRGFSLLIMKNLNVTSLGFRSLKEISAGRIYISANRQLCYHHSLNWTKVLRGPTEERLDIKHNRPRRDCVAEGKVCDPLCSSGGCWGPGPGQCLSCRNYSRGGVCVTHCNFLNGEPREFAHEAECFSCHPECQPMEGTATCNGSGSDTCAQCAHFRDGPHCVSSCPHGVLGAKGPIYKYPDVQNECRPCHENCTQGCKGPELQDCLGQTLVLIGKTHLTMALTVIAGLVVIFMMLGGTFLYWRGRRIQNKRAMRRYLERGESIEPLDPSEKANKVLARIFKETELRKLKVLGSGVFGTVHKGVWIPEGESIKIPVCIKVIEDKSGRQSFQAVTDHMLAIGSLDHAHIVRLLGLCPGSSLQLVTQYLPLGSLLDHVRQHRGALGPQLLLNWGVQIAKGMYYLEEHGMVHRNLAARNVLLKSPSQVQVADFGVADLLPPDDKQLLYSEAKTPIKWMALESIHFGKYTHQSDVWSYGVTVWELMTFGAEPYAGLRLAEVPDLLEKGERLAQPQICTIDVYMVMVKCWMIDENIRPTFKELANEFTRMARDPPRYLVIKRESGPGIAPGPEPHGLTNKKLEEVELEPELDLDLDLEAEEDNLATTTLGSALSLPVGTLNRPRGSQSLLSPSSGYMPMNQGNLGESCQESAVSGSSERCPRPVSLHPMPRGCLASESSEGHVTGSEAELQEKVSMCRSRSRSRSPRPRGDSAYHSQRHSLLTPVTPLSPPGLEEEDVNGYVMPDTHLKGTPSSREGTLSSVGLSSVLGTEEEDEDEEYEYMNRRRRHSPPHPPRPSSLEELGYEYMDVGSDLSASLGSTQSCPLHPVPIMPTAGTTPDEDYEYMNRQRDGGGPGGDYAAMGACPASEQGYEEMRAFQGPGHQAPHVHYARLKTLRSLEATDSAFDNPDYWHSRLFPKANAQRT
Chain of UniProt P0C264 (whole entry, looked up): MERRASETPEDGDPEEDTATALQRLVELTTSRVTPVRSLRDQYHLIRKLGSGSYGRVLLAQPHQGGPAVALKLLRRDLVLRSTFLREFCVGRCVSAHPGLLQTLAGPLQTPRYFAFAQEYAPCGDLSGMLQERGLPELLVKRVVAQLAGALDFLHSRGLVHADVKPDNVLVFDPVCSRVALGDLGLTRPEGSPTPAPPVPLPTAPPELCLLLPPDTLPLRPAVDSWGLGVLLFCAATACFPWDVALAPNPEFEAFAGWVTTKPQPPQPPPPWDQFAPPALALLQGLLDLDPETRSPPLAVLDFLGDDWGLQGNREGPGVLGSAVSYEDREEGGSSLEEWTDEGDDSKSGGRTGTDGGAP
Chain of UniProt Q9H2X6 (whole entry, looked up): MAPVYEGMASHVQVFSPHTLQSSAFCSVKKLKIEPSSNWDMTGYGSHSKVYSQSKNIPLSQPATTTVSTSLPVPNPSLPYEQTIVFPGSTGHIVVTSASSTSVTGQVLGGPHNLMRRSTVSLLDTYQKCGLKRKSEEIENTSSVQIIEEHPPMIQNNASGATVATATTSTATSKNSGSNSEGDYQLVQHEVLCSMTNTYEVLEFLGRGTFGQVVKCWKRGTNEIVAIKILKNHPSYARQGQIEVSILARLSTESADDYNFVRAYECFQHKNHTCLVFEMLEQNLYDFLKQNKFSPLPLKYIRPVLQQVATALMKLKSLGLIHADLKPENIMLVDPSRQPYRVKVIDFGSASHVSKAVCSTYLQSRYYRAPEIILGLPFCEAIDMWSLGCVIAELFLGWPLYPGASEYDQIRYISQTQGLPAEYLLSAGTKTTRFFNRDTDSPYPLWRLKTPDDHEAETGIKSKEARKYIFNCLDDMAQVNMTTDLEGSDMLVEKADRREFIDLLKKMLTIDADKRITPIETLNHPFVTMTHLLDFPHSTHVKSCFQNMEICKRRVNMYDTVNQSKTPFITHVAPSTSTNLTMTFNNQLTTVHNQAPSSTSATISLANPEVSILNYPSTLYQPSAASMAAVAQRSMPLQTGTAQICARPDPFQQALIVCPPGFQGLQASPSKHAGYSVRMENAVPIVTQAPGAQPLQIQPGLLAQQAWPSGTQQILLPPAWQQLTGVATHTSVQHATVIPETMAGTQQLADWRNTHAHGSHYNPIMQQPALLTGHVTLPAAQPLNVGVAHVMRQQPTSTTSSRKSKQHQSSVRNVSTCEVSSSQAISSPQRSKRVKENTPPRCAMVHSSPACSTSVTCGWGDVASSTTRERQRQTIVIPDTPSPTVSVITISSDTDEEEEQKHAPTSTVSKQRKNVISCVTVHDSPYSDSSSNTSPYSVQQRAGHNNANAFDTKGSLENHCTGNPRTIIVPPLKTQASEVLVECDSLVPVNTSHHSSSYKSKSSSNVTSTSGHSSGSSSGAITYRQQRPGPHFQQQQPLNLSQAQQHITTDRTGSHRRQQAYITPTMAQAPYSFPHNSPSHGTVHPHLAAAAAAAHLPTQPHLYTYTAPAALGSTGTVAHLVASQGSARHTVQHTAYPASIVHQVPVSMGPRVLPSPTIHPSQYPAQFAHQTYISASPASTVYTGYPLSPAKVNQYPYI
Chain of UniProt P42336 (whole entry, unmodified, looked up): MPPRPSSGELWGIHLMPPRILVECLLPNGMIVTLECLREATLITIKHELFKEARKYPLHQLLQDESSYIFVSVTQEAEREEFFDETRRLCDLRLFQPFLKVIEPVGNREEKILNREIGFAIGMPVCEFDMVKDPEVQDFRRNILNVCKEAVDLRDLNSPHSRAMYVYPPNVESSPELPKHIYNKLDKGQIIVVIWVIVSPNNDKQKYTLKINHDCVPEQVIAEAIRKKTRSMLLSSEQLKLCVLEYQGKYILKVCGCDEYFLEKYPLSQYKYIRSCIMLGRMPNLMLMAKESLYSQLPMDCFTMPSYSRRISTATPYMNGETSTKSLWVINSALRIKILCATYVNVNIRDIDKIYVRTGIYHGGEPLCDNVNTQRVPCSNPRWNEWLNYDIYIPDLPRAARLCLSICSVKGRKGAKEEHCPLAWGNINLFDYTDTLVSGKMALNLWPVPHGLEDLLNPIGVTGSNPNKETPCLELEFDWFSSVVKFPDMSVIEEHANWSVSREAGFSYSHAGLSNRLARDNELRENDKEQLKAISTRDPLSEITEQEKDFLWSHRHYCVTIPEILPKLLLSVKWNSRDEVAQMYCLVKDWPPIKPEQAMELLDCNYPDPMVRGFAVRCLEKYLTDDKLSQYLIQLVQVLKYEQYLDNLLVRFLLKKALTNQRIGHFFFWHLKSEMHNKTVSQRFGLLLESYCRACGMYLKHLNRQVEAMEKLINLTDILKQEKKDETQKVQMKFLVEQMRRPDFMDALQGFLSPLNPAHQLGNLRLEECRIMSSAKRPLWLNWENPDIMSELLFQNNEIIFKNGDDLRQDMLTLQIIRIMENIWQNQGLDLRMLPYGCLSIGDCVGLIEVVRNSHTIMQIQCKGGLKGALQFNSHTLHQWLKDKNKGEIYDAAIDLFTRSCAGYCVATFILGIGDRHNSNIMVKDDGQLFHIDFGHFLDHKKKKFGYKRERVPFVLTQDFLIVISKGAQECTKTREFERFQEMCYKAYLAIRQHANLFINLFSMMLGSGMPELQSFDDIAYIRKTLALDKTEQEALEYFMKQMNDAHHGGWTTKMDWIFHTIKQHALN
Chain of UniProt Q15208 (whole entry, looked up): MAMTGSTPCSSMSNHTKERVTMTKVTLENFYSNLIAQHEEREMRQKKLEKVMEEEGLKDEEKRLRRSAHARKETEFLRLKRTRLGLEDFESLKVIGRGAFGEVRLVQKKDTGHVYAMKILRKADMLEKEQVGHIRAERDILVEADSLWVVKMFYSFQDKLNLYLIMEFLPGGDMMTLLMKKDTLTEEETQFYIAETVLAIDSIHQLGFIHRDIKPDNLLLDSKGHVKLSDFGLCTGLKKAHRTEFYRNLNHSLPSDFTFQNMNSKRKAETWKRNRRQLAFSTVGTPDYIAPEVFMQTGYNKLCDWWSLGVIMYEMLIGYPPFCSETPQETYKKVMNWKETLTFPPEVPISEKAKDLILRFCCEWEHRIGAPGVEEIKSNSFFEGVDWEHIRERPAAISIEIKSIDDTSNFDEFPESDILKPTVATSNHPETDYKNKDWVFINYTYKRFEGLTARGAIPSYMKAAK

Set 1 — read-out: cell-free assay; technique: competition with immobilised ligand; tested at: 1 µM
SMILES: CN(C)CC#Cc1ccc(OCCCc2sc(N3CCc4cccc(C(=O)Nc5nc6ccccc6s5)c4C3)nc2C(=O)O)c(F)c1
| target | remaining binding [%] |
| --- | --- |
| Homeodomain-interacting protein kinase 2 (HIPK2, Homo sapiens, UniProt Q9H2X6) | 100 |
| Mitogen-activated protein kinase kinase kinase kinase 5 (MAP4K5, Homo sapiens, UniProt Q9Y4K4) | 91 |
| Cytoplasmic tyrosine-protein kinase BMX (BMX, Homo sapiens, UniProt P51813) | 82 |
| Casein kinase I isoform alpha (CSNK1A1, Homo sapiens, UniProt P48729) | 71 |
| Mast/stem cell growth factor receptor Kit (KIT, Homo sapiens, UniProt P10721, T670I/V559D) | 95 |
| Phosphatidylinositol 4,5-bisphosphate 3-kinase catalytic subunit alpha isoform (PIK3CA, Homo sapiens, UniProt P42336, H1047Y) | 100 |
| 1-phosphatidylinositol 3-phosphate 5-kinase (PIKFYVE, Homo sapiens, UniProt Q9Y2I7) | 100 |
| SNF-related serine/threonine-protein kinase (SNRK, Homo sapiens, UniProt Q9NRH2) | 100 |
| Ribosomal protein S6 kinase alpha-4, C-terminal kinase domain (RPS6KA4, Homo sapiens, UniProt O75676) | 96 |
| Ephrin type-B receptor 1 (EPHB1, Homo sapiens, UniProt P54762) | 100 |
| cGMP-dependent protein kinase 1 (PRKG1, Homo sapiens, UniProt Q13976) | 100 |
| Myosin light chain kinase, smooth muscle (MYLK, Homo sapiens, UniProt Q15746) | 81 |
| Homeodomain-interacting protein kinase 1 (HIPK1, Homo sapiens, UniProt Q86Z02) | 75 |
| Hepatocyte growth factor receptor (MET, Homo sapiens, UniProt P08581) | 61 |
| Serine/threonine-protein kinase 3 (STK3, Homo sapiens, UniProt Q13188) | 88 |
| Uncharacterized serine/threonine-protein kinase SBK3 (SBK3, Homo sapiens, UniProt P0C264) | 100 |
| Receptor tyrosine-protein kinase erbB-3 (ERBB3, Homo sapiens, UniProt P21860) | 100 |
| Protein kinase C delta type (PRKCD, Homo sapiens, UniProt Q05655) | 100 |
| Serine/threonine-protein kinase 38 (STK38, Homo sapiens, UniProt Q15208) | 76 |
| Tyrosine-protein kinase ABL1, non-phosphorylated (ABL1, Homo sapiens, UniProt P00519, H396P) | 100 |
| Mitogen-activated protein kinase kinase kinase 14 (MAP3K14, Homo sapiens, UniProt Q99558) | 100 |
| Epidermal growth factor receptor (EGFR, Homo sapiens, UniProt P00533, del752-759) | 100 |

Set 2 — read-out: enzyme activity; mode: inhibitor; tested at: 0.5 µM; baseline: control
Target: Myotonin-protein kinase (DMPK, Homo sapiens, UniProt Q09013)
Chain of UniProt Q09013 (whole entry, looked up): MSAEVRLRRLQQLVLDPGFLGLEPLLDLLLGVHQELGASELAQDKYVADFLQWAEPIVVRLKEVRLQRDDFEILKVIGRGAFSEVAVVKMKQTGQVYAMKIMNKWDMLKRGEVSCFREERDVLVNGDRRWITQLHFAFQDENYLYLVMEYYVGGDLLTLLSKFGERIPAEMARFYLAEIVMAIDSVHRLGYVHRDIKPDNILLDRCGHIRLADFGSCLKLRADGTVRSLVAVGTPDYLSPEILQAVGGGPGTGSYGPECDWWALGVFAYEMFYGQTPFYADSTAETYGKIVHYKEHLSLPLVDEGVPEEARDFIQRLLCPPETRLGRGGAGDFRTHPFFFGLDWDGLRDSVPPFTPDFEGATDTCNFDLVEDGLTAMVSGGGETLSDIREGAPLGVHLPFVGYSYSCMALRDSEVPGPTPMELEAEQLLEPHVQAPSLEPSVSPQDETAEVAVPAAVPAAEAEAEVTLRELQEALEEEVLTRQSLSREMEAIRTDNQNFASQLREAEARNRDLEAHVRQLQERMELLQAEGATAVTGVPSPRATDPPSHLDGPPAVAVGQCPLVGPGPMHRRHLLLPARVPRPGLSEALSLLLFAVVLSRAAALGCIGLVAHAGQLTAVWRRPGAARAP
| Compound | remaining activity |
| --- | --- |
| c1ccc(-c2[nH]ncc2-c2ccnc3ccccc23)nc1 | 106% |
| Cc1cn(-c2cc(NC(=O)c3ccc(C)c(Nc4nccc(-c5cccnc5)n4)c3)cc(C(F)(F)F)c2)cn1 | 98.1% |
| O=C1C(Cl)=C(N2C(=O)CCC2=O)C(=O)c2ccccc21 | 98.5% |
| Ic1cccc(CSc2nnc(-c3ccncc3)o2)c1 | 105% |
| C[C@@H]1CCN(C(=O)CC#N)C[C@@H]1N(C)c1ncnc2[nH]ccc12 | 108% |
| CCN(CC)CCNC(=O)c1c(C)[nH]c(/C=C2\C(=O)Nc3ccc(F)cc32)c1C | 97.7% |
| Cn1nc2c3c(cccc31)C(=O)c1ccccc1-2 | 107% |
| COc1cc2ncnc(Nc3cccc(Cl)c3)c2cc1OC | 102% |
| CCOc1nc(NC(=O)Cc2cc(OC)ccc2OC)cc(N)c1C#N | 99.5% |
| N#Cc1c(NC(=O)c2cccc3ccccc23)sc2c1CCCC2 | 109% |
| O=c1cc(-c2cccc3c2Sc2ccccc2S3)oc(N2CCOCC2)c1 | 94.8% |
| N#C/C(=C\c1ccc(O)c(O)c1)C(=O)NCc1ccccc1 | 99.7% |
| O=C(Nc1cccc(Nc2nccc(Nc3cccc(C(F)(F)F)c3)n2)c1)C1CC1 | 101% |
| CN(C)C[C@H]1CCn2c(c(C3=C(c4cn(C)c5ccccc45)C(=O)NC3=O)c3ccccc32)C1 | 106% |
| Cc1nc2cc3nc(-c4cccs4)cnc3cc2n1C | 100% |
| c1ccc(-c2cnc(Nc3ccc(OCCN4CCCC4)cc3)s2)cc1 | 110% |
| Cc1cc2ncc(-c3ccccc3)nc2cc1C | 102% |
| CN([C@@H](Cc1ccc(OS(=O)(=O)c2cccc3cnccc23)cc1)C(=O)N1CCN(c2ccccc2)CC1)S(=O)(=O)c1cccc2cnccc12 | 108% |
| O=C1c2ccccc2-c2n[nH]c3cccc1c23 | 99% |
| COc1cc2c(cc1OC)-c1[nH]nc(Nc3cccc(F)c3)c1C2 | 109% |
| COc1cc2ncnc(Nc3ccc(O)c(Br)c3)c2cc1OC | 101% |
| Nc1cccc(-c2cc3c(Oc4cccc(O)c4)ncnc3[nH]2)c1 | 95.2% |
| CCN(CC)CCNC(=O)c1c(C)[nH]c(/C=C2\C(=O)Nc3ccc(Cl)cc32)c1C | 102% |
| CCN(CC)C(=O)c1ccc(Nc2nc(OCC3CCCCC3)c3[nH]cnc3n2)cc1 | 105% |

Set 3 — species: human; matrix: microsomes or S9; tested at: 2 µM; time: 0.5 h
| Compound | remaining compound [%] |
| --- | --- |
| CN(c1cccnn1)S(=O)(=O)c1c(Cl)ccc2scnc12 | > 100 |
| CC(NS(=O)(=O)c1ccc(S(=O)(=O)NC2CCCCC2C)cc1)c1ccc(F)cc1 (stereo not shown) | 0.443 |
| COc1cc(=O)n2c(c1C(=O)N1CCN(c3ccc(C)cc3)CC1)CCCC2 | > 99 |
| COc1nc([N+](=O)[O-])cn1CC(OCc1ccc(F)cc1)c1ccc(F)cc1F (stereo not shown) | 6.54 |
| Nc1cccc(COc2cc(Cl)c(Cl)cc2Cl)c1 | 92.2 |
| O=C(Nc1c(C(c2ccc(Cl)cc2)N2CCN(CCO)CC2)oc2ccccc12)c1cccs1 (stereo not shown) | 27.1 |
| COc1cc(NS(=O)(=O)c2ccc(-c3nnc(C4CCC4)o3)s2)cc(OC)c1 | 4.83 |
| CCN(CC(O)COc1ccccc1)C(=O)c1cccc(-c2ccc(O)cc2)c1 (stereo not shown) | 37.6 |

Other studies, line by line
| SMILES | system | conditions | measurement | result |
| --- | --- | --- | --- | --- |
| O=C1CCC(N2Cc3cc(C4CCN(Cc5ccccc5)CC4)ccc3C2=O)C(=O)N1 (stereo not shown) | male ICR mice, plasma | intravenous, 1.0 mg/kg | volume of distribution (Vz) | 13 L/kg and 13.4 L/kg |
